# Assay results collected from several papers.
# Numbered parts are unrelated; each lists some results of a single study. Values joined by “and” are separate records of one study, mostly repeats; a detail may differ.
# Chain of UniProt P08631 (whole entry, looked up): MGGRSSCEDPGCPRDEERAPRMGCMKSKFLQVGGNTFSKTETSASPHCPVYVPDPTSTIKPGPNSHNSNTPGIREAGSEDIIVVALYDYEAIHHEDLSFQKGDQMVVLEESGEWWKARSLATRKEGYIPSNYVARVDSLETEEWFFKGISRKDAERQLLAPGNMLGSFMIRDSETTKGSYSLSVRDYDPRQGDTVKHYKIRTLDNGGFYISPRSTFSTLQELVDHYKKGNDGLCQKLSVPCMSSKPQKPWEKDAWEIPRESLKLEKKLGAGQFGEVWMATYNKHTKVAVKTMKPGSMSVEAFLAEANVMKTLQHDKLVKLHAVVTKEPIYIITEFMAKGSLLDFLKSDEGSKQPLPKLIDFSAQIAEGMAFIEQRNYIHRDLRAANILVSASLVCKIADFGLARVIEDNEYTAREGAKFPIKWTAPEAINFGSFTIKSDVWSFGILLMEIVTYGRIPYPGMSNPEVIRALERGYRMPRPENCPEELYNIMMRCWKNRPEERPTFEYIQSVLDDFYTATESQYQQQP
# Chain of UniProt O43353 (whole entry, looked up): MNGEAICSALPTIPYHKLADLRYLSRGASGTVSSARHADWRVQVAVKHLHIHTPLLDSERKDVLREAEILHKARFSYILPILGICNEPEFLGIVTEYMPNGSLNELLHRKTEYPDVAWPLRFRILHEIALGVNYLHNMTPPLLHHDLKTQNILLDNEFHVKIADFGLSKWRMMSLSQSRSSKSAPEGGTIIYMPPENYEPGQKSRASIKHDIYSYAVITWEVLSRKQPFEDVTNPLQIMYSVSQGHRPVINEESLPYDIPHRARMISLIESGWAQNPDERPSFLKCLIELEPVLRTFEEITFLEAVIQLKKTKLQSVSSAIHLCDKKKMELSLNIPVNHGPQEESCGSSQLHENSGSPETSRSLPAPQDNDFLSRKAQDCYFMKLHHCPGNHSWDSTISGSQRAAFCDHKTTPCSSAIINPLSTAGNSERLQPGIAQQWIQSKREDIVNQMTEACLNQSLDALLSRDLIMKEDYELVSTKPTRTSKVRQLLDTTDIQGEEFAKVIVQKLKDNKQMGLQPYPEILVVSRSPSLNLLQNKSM

# Series 1
# Compound: O=C1CCC(N2Cc3c(ccc4c3OCC43CCN(Cc4ccccc4)CC3)C2=O)C(=O)N1 (centres unmarked)
# Mode: degrader
# Method: HiBiT
# Cell line: HEK293
# Time: 6 h
# Zinc finger protein Aiolos: Zinc finger protein Aiolos (Homo sapiens, UniProt Q9UKT9)
# Chain of UniProt Q9UKT9 (whole entry, looked up): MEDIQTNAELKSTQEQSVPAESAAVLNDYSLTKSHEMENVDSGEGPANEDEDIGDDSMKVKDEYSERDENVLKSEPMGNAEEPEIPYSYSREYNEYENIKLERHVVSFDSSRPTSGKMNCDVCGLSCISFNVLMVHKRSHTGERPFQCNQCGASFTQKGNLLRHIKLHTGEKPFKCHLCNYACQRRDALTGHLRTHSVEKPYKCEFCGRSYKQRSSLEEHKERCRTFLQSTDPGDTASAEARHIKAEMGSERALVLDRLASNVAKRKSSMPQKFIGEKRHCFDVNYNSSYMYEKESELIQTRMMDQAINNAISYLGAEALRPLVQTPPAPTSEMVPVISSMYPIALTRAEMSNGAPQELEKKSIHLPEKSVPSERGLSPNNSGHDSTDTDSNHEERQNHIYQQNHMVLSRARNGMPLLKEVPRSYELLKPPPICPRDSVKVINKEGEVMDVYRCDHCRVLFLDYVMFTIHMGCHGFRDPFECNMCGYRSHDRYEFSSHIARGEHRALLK
# DNA-binding protein Ikaros: DNA-binding protein Ikaros (Homo sapiens, UniProt Q13422)
# Chain of UniProt Q13422 (whole entry, looked up): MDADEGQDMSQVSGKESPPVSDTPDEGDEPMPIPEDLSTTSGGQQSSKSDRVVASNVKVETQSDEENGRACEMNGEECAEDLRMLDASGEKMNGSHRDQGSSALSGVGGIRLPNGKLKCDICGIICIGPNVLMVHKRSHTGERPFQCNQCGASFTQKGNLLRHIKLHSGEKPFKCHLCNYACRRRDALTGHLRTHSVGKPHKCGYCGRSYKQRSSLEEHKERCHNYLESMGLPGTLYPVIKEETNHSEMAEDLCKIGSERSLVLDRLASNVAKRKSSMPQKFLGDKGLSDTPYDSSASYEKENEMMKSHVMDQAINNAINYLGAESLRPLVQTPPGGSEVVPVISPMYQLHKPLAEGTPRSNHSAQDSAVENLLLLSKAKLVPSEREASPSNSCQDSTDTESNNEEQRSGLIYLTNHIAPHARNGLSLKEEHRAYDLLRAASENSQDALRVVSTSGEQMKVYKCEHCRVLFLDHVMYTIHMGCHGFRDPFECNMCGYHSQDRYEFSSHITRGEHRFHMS
# CSNK1A1: Casein kinase I isoform alpha (CSNK1A1, Homo sapiens, UniProt P48729)
# Chain of UniProt P48729 (whole entry, looked up): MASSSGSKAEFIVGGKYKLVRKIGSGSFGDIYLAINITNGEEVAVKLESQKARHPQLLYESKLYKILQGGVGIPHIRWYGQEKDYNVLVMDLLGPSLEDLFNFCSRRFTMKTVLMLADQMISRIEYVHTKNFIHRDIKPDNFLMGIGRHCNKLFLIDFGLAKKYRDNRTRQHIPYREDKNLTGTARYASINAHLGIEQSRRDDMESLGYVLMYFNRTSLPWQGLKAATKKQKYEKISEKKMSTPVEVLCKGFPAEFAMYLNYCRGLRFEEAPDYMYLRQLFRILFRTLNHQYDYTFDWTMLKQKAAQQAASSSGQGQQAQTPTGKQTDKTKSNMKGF
# GSPT1: Eukaryotic peptide chain release factor GTP-binding subunit ERF3A (GSPT1, Homo sapiens, UniProt P15170)
# Chain of UniProt P15170 (whole entry, looked up): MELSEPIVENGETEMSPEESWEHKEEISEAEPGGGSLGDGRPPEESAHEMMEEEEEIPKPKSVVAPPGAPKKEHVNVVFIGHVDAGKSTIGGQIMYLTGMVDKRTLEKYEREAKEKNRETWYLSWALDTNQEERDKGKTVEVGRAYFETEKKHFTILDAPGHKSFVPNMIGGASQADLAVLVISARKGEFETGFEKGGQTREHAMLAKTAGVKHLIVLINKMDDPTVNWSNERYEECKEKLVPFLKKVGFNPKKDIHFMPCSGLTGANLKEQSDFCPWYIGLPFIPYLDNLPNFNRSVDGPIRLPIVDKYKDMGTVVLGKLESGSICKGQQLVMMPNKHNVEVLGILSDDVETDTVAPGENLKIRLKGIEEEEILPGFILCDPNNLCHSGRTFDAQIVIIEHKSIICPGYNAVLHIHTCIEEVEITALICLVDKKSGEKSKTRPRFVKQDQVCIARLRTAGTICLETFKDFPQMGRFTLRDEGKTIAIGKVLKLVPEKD
# SALL4: Sal-like protein 4 (SALL4, Homo sapiens, UniProt Q9UJQ4)
# Chain of UniProt Q9UJQ4 (whole entry, looked up): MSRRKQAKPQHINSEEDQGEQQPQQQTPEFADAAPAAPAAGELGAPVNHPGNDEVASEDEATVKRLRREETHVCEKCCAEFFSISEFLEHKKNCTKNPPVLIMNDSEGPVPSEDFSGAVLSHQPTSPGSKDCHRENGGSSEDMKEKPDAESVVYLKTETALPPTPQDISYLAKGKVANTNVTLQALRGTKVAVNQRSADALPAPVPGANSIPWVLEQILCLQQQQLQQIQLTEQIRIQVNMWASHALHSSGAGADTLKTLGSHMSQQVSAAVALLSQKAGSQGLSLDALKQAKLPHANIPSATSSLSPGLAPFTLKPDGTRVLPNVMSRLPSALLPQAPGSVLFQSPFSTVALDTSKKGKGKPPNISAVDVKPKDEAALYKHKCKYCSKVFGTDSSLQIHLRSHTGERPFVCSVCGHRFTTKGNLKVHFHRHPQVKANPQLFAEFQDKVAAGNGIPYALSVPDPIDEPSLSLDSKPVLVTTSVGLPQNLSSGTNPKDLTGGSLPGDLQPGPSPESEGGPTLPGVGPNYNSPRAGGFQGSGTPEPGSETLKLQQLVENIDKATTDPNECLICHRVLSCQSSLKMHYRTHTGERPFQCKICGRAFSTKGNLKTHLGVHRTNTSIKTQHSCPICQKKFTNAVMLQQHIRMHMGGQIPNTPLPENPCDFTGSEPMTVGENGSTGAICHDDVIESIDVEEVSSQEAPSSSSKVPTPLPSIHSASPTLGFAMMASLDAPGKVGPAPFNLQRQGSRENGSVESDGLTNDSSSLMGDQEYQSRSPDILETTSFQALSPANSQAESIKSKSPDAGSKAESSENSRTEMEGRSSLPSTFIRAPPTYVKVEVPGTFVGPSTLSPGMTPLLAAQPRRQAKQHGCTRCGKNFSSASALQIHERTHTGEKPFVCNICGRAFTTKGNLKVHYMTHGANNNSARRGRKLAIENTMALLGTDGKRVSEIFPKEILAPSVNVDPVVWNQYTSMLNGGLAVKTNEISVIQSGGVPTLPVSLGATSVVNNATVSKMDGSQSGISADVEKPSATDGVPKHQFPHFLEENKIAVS
target,concentration,remaining protein [%]
Zinc finger protein Aiolos,1.111 µM,112
DNA-binding protein Ikaros,0.04115 µM,104
CSNK1A1,0.1235 µM,108
CSNK1A1,1.111 µM,109
Zinc finger protein Aiolos,0.01372 µM,104
GSPT1,0.0005081 µM,101
DNA-binding protein Ikaros,0.004572 µM,94.7
Zinc finger protein Aiolos,0.3704 µM,104
SALL4,1.111 µM,75.1
GSPT1,0.004572 µM,108
GSPT1,0.0001694 µM,105
Zinc finger protein Aiolos,0.001524 µM,101
GSPT1,0.01372 µM,104
SALL4,0.3704 µM,79.6
DNA-binding protein Ikaros,0.1235 µM,102
GSPT1,3.333 µM,120

# Series 2
# Target: Calcium/calmodulin-dependent protein kinase type II subunit alpha (CAMK2A, Homo sapiens, UniProt Q9UQM7)
# Chain of UniProt Q9UQM7 (whole entry, looked up): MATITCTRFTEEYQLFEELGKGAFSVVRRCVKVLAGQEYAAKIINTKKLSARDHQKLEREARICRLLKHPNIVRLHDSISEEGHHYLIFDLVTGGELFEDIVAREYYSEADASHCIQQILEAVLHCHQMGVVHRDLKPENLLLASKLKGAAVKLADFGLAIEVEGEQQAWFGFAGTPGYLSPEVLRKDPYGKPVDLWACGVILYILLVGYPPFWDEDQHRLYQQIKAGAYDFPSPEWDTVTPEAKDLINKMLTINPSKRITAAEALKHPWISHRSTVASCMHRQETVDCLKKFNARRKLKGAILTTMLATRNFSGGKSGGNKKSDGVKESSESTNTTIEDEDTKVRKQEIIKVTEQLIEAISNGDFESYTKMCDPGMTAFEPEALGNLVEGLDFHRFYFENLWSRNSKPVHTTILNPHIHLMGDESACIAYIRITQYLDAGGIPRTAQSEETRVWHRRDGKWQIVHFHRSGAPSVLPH
# Effect on: enzyme activity
# Mode: inhibitor
# Concentration: 10 µM
Compound,inhibition
O=c1ccc2ccc3occc3c2o1,17%
C[C@H](O)c1ccccc1,0%
OC1C[C@H]2CC[C@@H](C1)N2 (some centres unmarked),-15%
COc1cccc2c1cc([N+](=O)[O-])c1c(C(=O)O)cc3c(c12)OCO3,8%
COc1cc2c3c(c1OC)-c1ccccc1C[C@H]3[N+](C)(C)CC2,10%
c1ccc2c(c1)[nH]c1cnccc12,14%
C[C@H]1[C@H](c2ccc(Cl)cc2)SC(=O)N1C(=O)NC1CCCCC1,16%
CN1C[C@H](CNC(=O)OCc2ccccc2)C[C@@H]2c3cccc4c3c(cn4C)C[C@H]21,-4%

# Series 3
# Target: Eukaryotic initiation factor 4A-I (EIF4A1, Homo sapiens, UniProt P60842)
# Chain of UniProt P60842 (whole entry, looked up): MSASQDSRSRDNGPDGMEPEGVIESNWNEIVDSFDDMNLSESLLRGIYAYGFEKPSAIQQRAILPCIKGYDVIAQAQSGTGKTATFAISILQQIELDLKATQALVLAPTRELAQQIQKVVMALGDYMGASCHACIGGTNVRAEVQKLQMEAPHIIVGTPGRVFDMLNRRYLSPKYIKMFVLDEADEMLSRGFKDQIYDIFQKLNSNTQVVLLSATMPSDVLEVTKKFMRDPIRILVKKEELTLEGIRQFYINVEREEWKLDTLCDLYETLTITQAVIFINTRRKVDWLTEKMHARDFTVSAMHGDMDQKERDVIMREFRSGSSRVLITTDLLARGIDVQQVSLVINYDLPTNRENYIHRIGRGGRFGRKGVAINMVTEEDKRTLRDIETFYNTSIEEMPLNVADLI
# Effect on: RNA clamping
# Method: fluorescence polarization
# Concentration: concentration not given
# Together with: FAM-labelled poly r(AG)8 RNA
# Reading: higher = more clamping
SMILES,fluorescence polarization change
COC(=O)Cc1nc2c(c(=O)[nH]1)[C@@H](c1ccccc1)[C@]1(c3ccc(OC)cc3)Oc3cc(OC)cc(OC)c3[C@]21O,32.6 mP
COC(=O)[C@H]1[C@H](c2ccccc2)[C@]2(c3ccc(OC)cc3)Oc3cc(OC)cc(OC)c3[C@@]23OC(c2ccccc2)=N[C@@]13O,-1.2 mP
COc1ccc([C@@]23Oc4cc(OC)cc(OC)c4[C@]2(O)c2nc(-c4ccc(C(F)(F)F)cc4)[nH]c(=O)c2[C@H]3c2ccccc2)cc1,-2.2 mP and 12.9 mP
COc1ccc([C@@]23Oc4cc(OC)cc(OC)c4[C@]2(O)c2nc(-c4ccccc4Cl)[nH]c(=O)c2[C@H]3c2ccccc2)cc1,32.4 mP
COC(=O)[C@H]1[C@H](c2ccccc2)[C@@]2(c3ccc(Br)cc3)Oc3cc(OC)cc(OC)c3[C@]1(O)[C@H]2O,10.6 mP
COc1cc(OC)c2c(c1)O[C@@]1(c3ccc(Br)cc3)[C@H](c3ccccc3)C[C@@H](O)[C@@]21O,28.7 mP
COC(=O)[C@H]1C(=O)[C@@]2(O)c3c(OC)cc(OC)cc3O[C@@]2(c2ccc(OC)cc2)[C@@H]1c1ccccc1,52.4 mP
COC(=O)[C@@H]1[C@@H](c2ccccc2)[C@]2(c3ccc(OC)cc3)Oc3cc(OC)cc(OC)c3[C@@]23OC(c2ccc(OC)cc2)=N[C@@]13O,-7.7 mP

# Series 4
# SMILES: CCn1cnc2c(Nc3cccc(Cl)c3)nc(N[C@H]3CCCC[C@H]3N)nc21
# Effect on: enzyme activity
# Mode: inhibitor
# Concentration: 0.5 µM
# Baseline: control
target,remaining activity [%]
"Receptor-interacting serine/threonine-protein kinase 2 (RIPK2, Homo sapiens, UniProt O43353)",70
"Phosphorylase b kinase gamma catalytic chain, liver/testis isoform (PHKG2, Homo sapiens, UniProt P15735)",85.6
"Mitogen-activated protein kinase kinase kinase 9 (MAP3K9, Homo sapiens, UniProt P80192)",54.9
"Serine/threonine-protein kinase Sgk3 (SGK3, Homo sapiens, UniProt Q96BR1)",94.3
"Serine/threonine-protein kinase ULK1 (ULK1, Homo sapiens, UniProt O75385)",74.5
"Mitogen-activated protein kinase kinase kinase kinase 5 (MAP4K5, Homo sapiens, UniProt Q9Y4K4)",91.1
"Serine/threonine-protein kinase TAO1 (TAOK1, Homo sapiens, UniProt Q7L7X3)",90.2
"Tyrosine-protein kinase HCK (HCK, Homo sapiens, UniProt P08631)",69.6
"Platelet-derived growth factor receptor beta (PDGFRB, Homo sapiens, UniProt P09619)",99.6

# Some of these lines once more (series 4):
target,remaining activity [%]
"Serine/threonine-protein kinase Sgk3 (SGK3, Homo sapiens, UniProt Q96BR1)",94.3
"Platelet-derived growth factor receptor beta (PDGFRB, Homo sapiens, UniProt P09619)",99.6
"Serine/threonine-protein kinase ULK1 (ULK1, Homo sapiens, UniProt O75385)",74.5
"Mitogen-activated protein kinase kinase kinase 9 (MAP3K9, Homo sapiens, UniProt P80192)",54.9
"Mitogen-activated protein kinase kinase kinase kinase 5 (MAP4K5, Homo sapiens, UniProt Q9Y4K4)",91.1
"Receptor-interacting serine/threonine-protein kinase 2 (RIPK2, Homo sapiens, UniProt O43353)",70
